Experimental data pooled from the literature.
A part holds a random share of what one study measured. Substitutions count along the parent as printed.
Chain of UniProt P41595 (whole entry, looked up): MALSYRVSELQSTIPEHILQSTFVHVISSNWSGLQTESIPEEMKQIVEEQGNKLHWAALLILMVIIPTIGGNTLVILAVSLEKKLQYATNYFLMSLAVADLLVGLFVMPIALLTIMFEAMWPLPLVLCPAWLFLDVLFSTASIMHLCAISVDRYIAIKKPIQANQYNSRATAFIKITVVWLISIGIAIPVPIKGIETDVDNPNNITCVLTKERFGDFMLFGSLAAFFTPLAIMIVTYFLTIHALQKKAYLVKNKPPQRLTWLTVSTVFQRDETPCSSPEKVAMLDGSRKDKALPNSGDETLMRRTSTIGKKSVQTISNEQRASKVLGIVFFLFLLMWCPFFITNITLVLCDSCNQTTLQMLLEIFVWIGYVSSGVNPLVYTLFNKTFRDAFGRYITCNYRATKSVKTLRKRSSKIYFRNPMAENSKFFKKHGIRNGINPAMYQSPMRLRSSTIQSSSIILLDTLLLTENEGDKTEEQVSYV

Study 1
Target: RING finger protein unkempt homolog, zinc fingers 1-6, GST-SBP tag (UNK, Homo sapiens, UniProt Q9C0B0, residues 30-357)
Chain of UniProt Q9C0B0 (30-357, looked up): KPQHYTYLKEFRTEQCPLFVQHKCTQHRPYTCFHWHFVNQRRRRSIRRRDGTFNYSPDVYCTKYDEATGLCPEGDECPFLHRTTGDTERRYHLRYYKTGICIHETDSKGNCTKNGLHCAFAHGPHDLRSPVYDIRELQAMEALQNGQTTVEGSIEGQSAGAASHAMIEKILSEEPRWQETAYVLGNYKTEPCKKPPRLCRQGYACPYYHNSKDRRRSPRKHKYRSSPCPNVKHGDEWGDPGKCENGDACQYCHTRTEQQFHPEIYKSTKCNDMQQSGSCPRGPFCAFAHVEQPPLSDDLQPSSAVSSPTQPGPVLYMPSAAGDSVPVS
Technique: RNA Bind-n-Seq
Form: RNA
Sample: in vitro
Tested at: not given
Notes: RNA with constant flanks, ends assumed
Reference: input RNA pool
Reading: higher = stronger binding
Measurement: bound/input enrichment
All sequences stand within: GGGAGUUCUACAGUCCGACGAUC … CAACAGAGGAUUGAGCAUCA
UUCCUUACCCGGCCUAAGGUCCCUGUCUUGCAGCUGGAUAGUGGCAACUACCUCUUCUCUGCCCGUGCAAUCUGCCGAUAUUUUUUUCUGUUAUGUGGCUGGGAACAAGAUGAUCUCACC: 0.258 ratio
GGAACGGAGCAAUUUACAGCAAUGAGGGAUUUAUACAUGAAAAAUGGACAAGGAUUUGCAUCCGUUUAUUCCAUCACAGCACAGUCCACAUUUAACGAUUUACAAGACCUGAGAGAACAG: 0.296 ratio
CAUGAAGGAUGCCAAGAAGUUUAAGGAAUAUGGGAGAAAUAGUGUGGAAAUUAAGAAGAAACCCGGUCUGAUAUUCAAAUGGACAAACUGCCAGUUUUGUUUCCUUUCACUGGCCACAGU: 0.342 ratio
UUCCCUGAAUUUCUGACAAUGAUGGCAAGAAAAAUGAAAGACACAGACAGUGAAGAAGAAAUCCGAGAAGCAUUCCGUGUGUUUGAUAAGGAUGGCAAUGGCUAUAUUAGUGCUGCAGAA: 0.24 ratio
CUAUUCGACUUAGGCUCCAACGUAACUGCAAUUUAAUGUUGGUAGUAUAGCAAAUUAUGAACCGAUUUGUUGUAUGUUUUGAAGUCACAUGCUUACAUGCUUAAAUCUGGAUAUCAGAAU: 0.4 ratio
ACUUGUAAUUUCUUUCUGCUUAGAAUCUAAAGAUGUGUUUAGAACCUCUUGUUUAAAAAUAACCGACUGCUUAUCAUAAAAUCACAUCUCACACAUUUGAGGCAGUGGUCAAACAGGUAA: 0.53 ratio
CCGCCCGGGUCGUGGAGCCAGGAGCGACGUCACCGCCAUGGCGGGCAUCAAAGCUUUAAUCCGUUUGUCCUUUGGAGGAGCGAUCGGGCUGAUGUUCCUGAUGCUUGGAUGUGCCCUUCC: 0.174 ratio
UCCCAGAGAUAAGUUCACCAAGAUGUCCAGUGACAGGCAAAGGUCGGAUGAUGAGAGCCCCCGCACCAGCAGUGGCAGUUCAGAUGCAGAUCAGCGAGACCCUGCCGCUCCAGAGCCCGA: 0.12 ratio

Study 2
Target: CCNB1, cyclin fold, Cln2 fusion (human)
Technique: yeast growth competition, sequencing
Sample: yeast
Notes: strong parent motif
Reference: not given
Reading: higher = stronger binding
Measurement: normalised enrichment score
Starting sequence: MASTL docking peptide (human); PMIAKNLMCELDE
PMIAKNLMCVLDE [E10V]: 0.904
PMIAKNVMCELDE [L7V]: -0.286
PMIAKNLMDELDE [C9D]: 2.56
PMIAKNLMCILDE [E10I]: 1.28
PMILKNLMCELDE [A4L]: 0.204
PMIAANLMCELDE [K5A]: 0.146
PMIAKNLMCELHE [D12H]: 0.774
PMIAKNLMCELPE [D12P]: 0.346

Study 3
Target: PABPC1L2, full length, GST fusion (mouse, UniProt A0ABA7IW68)
Technique: RNAcompete
Form: RNA
Sample: in vitro
Tested at: 20 nM
Notes: 7-mer, probes averaged, single round
Reference: mean of 7-mers
Reading: higher = stronger binding
Measurement: 7-mer Z-score
Construct (chain): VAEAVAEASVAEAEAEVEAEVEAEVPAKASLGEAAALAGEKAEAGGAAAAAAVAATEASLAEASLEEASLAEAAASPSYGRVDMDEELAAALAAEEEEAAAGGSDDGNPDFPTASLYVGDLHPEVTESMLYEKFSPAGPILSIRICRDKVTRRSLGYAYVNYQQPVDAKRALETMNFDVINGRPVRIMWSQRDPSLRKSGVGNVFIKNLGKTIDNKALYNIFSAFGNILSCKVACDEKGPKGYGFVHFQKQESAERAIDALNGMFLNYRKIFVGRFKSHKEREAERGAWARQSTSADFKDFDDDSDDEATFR
UAACCAG: -0.0808
UACGGAG: -0.0446
ACUUCGA: -0.0844
CGUCGCG: -0.452
GCGGUGG: 0.0895
GGCUCGC: -0.313
AUGAUAC: -0.0953
UUAACUA: -0.15

Mixed results
O=C(NNS(=O)(=O)c1ccccc1)c1cc(-c2ccnnc2)ccc1F
inhibition (5-hydroxytryptamine receptor 2B (HTR2B, Homo sapiens, UniProt P41595); cell-free assay; 10 µM): 40.1%

Repeated from above (study 1):
UUCCCUGAAUUUCUGACAAUGAUGGCAAGAAAAAUGAAAGACACAGACAGUGAAGAAGAAAUCCGAGAAGCAUUCCGUGUGUUUGAUAAGGAUGGCAAUGGCUAUAUUAGUGCUGCAGAA: 0.24 ratio
UUCCUUACCCGGCCUAAGGUCCCUGUCUUGCAGCUGGAUAGUGGCAACUACCUCUUCUCUGCCCGUGCAAUCUGCCGAUAUUUUUUUCUGUUAUGUGGCUGGGAACAAGAUGAUCUCACC: 0.258 ratio
